Experimental data of several laboratories.
Each numbered part is a random draw from the data of one study; scales do not carry over between parts.

Set 1 — method: protein binding microarray; molecule type: double-stranded DNA, one strand shown; matrix: in vitro; concentration: not given; relative to: not given; direction: higher = stronger binding; quantity: E-score
Target: Histone acetyltransferase KAT6A, winged helix 1, GST fusion (KAT6A, Homo sapiens, UniProt Q92794, residues 1-85)
Notes: 8-mer, flanks averaged, mean of 2 arrays, mostly near background
Target sequence (chain): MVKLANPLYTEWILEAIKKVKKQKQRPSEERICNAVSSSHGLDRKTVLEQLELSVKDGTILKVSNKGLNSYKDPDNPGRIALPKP
AAATTCGA: -0.203
GCACAGAA: -0.0594
ATCCACTC: -0.284
ATGACAAT: -0.243
CCTTACTC: -0.00585
CTAGGCAA: -0.185
ACGAACTG: -0.134
CGTCCTAG: 0.0283
ATAACAAC: -0.0778
GAGTGCGA: 0.0446
TTAGCTAA: -0.254
ATTAGCTC: -0.162
CGCTGGCC: 0.29
AGCTAACC: -0.131
CCGGGTGC: 0.329
GCTGTGTA: 0.043
GAATCTCC: -0.0548
CAATCCCA: -0.217
TAAAAAGA: -0.15
CATTTCCC: 0.0291
CGCACAGC: 0.367
GTAGTCTA: -0.0825
AAGTAGGG: -0.209
ATTACCTA: -0.0715
AATCACCG: 0.132

Set 2 — method: RNA Bind-n-Seq; molecule type: RNA; matrix: in vitro; concentration: 365 nM; relative to: no-protein control; direction: higher = stronger binding; quantity: RBNS enrichment (R)
Target: RNA binding protein fox-1 homolog 2, RRM domain, GST-SBP tag (RBFOX2, Homo sapiens, UniProt O43251-10, residues 100-194)
Notes: natural RNA segment, single round, ends assumed
All sequences stand within: GGGAGUUCUACAGUCCGACGAUC … UGGAAUUCUCGGGUGCCAA
Residues (chain): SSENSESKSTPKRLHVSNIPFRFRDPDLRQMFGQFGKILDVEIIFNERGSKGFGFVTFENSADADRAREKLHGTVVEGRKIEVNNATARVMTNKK
AGCUUGUUACGUGAAUUCAACAAGCUGUCUUCUUAACGGGAGCCCUCAUUCUGGUUUAUUUAUUAUGAACUUCCAAGUUAUUUAAAUGAAGAUUUCCUUCUGCAGUAUUU: 0.32
UUUUCAUAAAUCCCCUUAUUAGAAAGUUCUUUUACAUAUAGGCCCCAAAAUUGUGAUUAUUAAAAAUAUAGUUAAUUGUGAUUAGCCUCCAGUGAAAAUAGGUUGAAAGC: 0.942
ACAAGUUUCAGAGCAUGGAGACAUUCCUGCUGAAUCGCCUUCUCACCUCCUCGGCAAUUGCUCAUUCUAGGGUUGGGCAUCAUAGUUGGUCAGUCUUAAUUCCCAUGCCA: 0.518
AUCAGUGAGUCUUACAGAAAGAUAUGCUUCCAUAAUAUGAAAUAGAUUAUUCAAUAAUUGAGAAACUUUAUGUGUAAUCAUGAGAGUAUAAGAAUCUGGAUUAUCUAACA: 0.409
AACAUUUAAACCUGGAGACUCUUCGUGUCUUGAAUUAGGAUGUUUGUCCAGUAAUAAAAUAUAGAACCUUUCAAAAUGCUUUUCUGGUUUAUAAAGUACUGAAUUGCCCU: 0.629
CCAUAUCAAGAUUUCUGCUAGCUAAUGCAUAGAGGGAAUACUGUCUAAAAAUAGACCCUUUCUUCCCAAAGGUUGGGAGGUGGGACCUGAGCAGUGGAGUGAAGCCACAC: 0.652
UCUUUGCACCAGAGAGCAUUUUGCAUUCUGGACUUGAUAGACGCACCCCUUUUUAUACAGAUGUUUUUAUAUGUGUGUGCUCAGGCCUGCCGAGAUGCAGGGCAAAGUUG: 0.968
AAUGGUGACAAUAACAACUUCAGAGAUCUGUGAUGAUCAUUUAAAUGGAGUACUCAUCUUCUCAUAGAAGAGCCGAUUAAUAUUAUCUAAGUACUUUAGUAGAAAACAAC: 0.344
UGGAACUUUCCAUGACUGGAUCACAGGGAAAAACCGACCGAGCUCAGGAAGCCUAAUCCAGGUGGUAACCACAGAAGGAAGGACGGAACUCACCCCAGCAUAUUUUUAGG: 0.701
GCUUCAGCAUUGUGCAGUUUAAAAAUAAGUAAGUAACUUACAUAAAUCUUCAAUUGUAUGAACUGCAGCUUUGAGUCCAUUUUUUUCCAGUGGUGAAGAAUUGGCGGGGG: 0.42
AAAUAUAUAUGGACUUAGUUUUUGAACGGAGUCAUUAUUCCUCUAAGGUGGUUCGCUUUGAGGUGGUCUGAAGCCAAGGCCUCGCGGAGCUUCUUUGUGUGUCACCUUGC: 0.475
GGCCUGAGAAUCCAGCUCACCUCCUCUGCCCACAGUCUGGACUGCUUGUGGGAAGGCCAUCUCCUCCUGUCUGGUGGUACCUCCACUCUGGGCAGGGAGGGCCUGUCUGU: 0.413

Set 3 — method: RNA Bind-n-Seq; molecule type: RNA; matrix: in vitro; concentration: not given; notes: RNA with constant flanks, ends assumed; relative to: input RNA pool; direction: higher = stronger binding; quantity: bound/input enrichment
Target: RING finger protein unkempt homolog, zinc fingers 1-6, GST-SBP tag (UNK, Homo sapiens, UniProt Q9C0B0, residues 30-357)
Chain of UniProt Q9C0B0 (30-357, looked up): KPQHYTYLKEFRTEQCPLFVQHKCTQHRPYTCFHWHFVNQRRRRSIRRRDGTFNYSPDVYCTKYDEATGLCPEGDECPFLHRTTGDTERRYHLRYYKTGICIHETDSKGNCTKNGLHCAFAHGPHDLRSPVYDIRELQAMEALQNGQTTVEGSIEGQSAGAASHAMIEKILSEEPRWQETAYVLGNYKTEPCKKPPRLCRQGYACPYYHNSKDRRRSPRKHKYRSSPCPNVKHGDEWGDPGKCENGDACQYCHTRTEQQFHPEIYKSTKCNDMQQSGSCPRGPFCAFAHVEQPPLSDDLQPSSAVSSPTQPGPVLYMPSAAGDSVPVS
All sequences stand within: GGGAGUUCUACAGUCCGACGAUC … CAACAGAGGAUUGAGCAUCA
AAGCCUGGAAAACCCAAGGGCAAGAAAAAGCUUUCUUCUGUUCGUCAAAAAUUUGAUCACCGGUUCCAGCCUCAGAACCCCCUCUCUGGAGCUCAGCAGUUCGUGGCAAAGGAGCCCCAG: 0.166 ratio
GUAGAUGGAACUUUUCUAGUGUGGCAUGUAAAGUAUUUGGAUGAAUAUAACCCUGGAAUAUUCCGACAAGUUCAGGUUUCUUUUUCCUCUCGGAUUCCUGUUGCAUUUCCCUCUGGGGAC: 0.572 ratio
AUUAGUGUUAUUUAUGGCUAGAAAAGCAUGCUUCUAUUUAAGCUGUAAAAAGGAUUGUCGAACCGUUACUGUAAAUAUAUGUUGACAUAGUAAAGCUUGGAAUGUCUUAUGUCCCUGGUG: 1.21 ratio
UCGUUUGGGUCACCAGGCUUCCCAGUGAAUAACAGCAGCAGCAGUACUGUUCAGAACUUCCGUUUUAAAACAAGCCCUGGACUUGCCACUCCUCCUUCCGGAAGCACUUCAGUAUUUGGA: 0.179 ratio
GUCAACAAGGUGGAGUUGCUGGUGAUGAAGGCACUCUCGGUGGGGCUGGUGAGAGGCAGCACCGACGAGGUGGACAAGCGGGUUCACAUGACGUGGGUGCAGCCGCGAGUGCUGGAUUUG: 0.306 ratio
UACAUCACCAAUGUUCUACAAAAUCCUGAUUUGGCUCUGAGAAUGGCUGUACGUAAUAACUCCGCCGGUGCUGAAGAACUCUUUGCCCGGAAAUUUAAUGCUCUUUUUGCCCAGGGAAAU: 0.426 ratio
AAGUGUGUUUCCACUCAAAGAAAGAAAAGGUUCACGAAGAACAUAAAUGCUGGCUUUUCCCUCCGCCCCAAUAUCAGUAAACAUCUGGCCAGCCUAUCAGUGGUUGGAAACAGGAGUCCC: 0.328 ratio
UUAAUAGGCUUAAUAAUUGUUGGCAAGGAUCCUUUUGCUUUCUUUGGCAUGCAAGCUCCCCGCAUCUGGCAGUGGGGCCAAGAAAAUAAGGUUUAUGCAUGUAUGAUGGUUUUCUUCUUG: 0.448 ratio
GCAAGGCAGAGCCACCAGAAACGUACACCUGAUUUUCAUGACAAAUACGGUAAUGCUGUAUCCGCCCGUGGAGCCACUUUCUGUAUUGUUACAUGGACAUAUGUAGCAACACAAGUCGGA: 0.131 ratio
AACAGCUCUCUCCUUCCUCGUUACUGCAAAUUGAUUGUUUCCCUUUCCUGGUACCAUAAUCUCCGAGGCAAACUUUGAGACAGGUGUUUUGAGGCUCUUCCUGUACUCUUAGGAUAUAUG: 1.25 ratio
GCAACUUGGAAAGACUAUCUUUCAAGCUUCAAUUCUUACCUGACUAAGUCUGCUGAUUUUACCGAACAAUCUGUUUUUUACUGGGAACAGAUGACAGAUGGGUUUUUCAUUUUUGGUGAA: 0.188 ratio

Set 4 — method: RNA Bind-n-Seq; molecule type: RNA; matrix: in vitro; concentration: 200 nM; notes: whole 134-nt RNA, ends assumed; with: 150 mM LiCl; relative to: input library; direction: higher = stronger binding; quantity: log2 enrichment; all molecules: 7-deaza-guanosine replaces G
Target: Ras GTPase-activating protein-binding protein 1, full length (G3BP1, Homo sapiens, UniProt Q13283)
Chain of UniProt Q13283 (whole entry, looked up): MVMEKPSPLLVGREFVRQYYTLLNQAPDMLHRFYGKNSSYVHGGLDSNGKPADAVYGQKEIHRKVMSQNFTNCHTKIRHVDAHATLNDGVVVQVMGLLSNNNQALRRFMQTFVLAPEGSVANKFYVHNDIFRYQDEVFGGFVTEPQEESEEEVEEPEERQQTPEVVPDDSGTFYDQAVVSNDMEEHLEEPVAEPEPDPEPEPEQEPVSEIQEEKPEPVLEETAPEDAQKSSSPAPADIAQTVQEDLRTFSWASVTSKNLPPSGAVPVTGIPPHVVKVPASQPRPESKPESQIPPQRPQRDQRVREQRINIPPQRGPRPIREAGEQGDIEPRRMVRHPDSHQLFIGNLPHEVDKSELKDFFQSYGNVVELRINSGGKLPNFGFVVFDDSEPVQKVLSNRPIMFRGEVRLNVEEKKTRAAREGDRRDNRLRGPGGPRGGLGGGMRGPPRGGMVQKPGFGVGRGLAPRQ
All sequences stand within: GGGAGUUCUACAGUCCGACGAUC … UGGAAUUCUCGGGUGUCAAGG
UGCUGGAGUGGCAGAAGACUUUUGAGGAGAAGCUCACGCCGUUGCUGAGUGUGCGGGAGUCACUCUCAGAGGAAGAGGCCCAGAAGAUGG: -1.61
ACCAUGCAGGUGGGCAUCUUUUGGAAGUGGGGCAAGGGGGGGAUAGGGAGGGGGGUAACACUUUGGGAACAGGUGGUCCCAGGUCGUUUC: 0.256
GCAGGAAGUAAAAACAAAUGGAAAUGCUUCGGAUAGUGGCAGGGGUGGGGAUUGCUAAGGAAAGGGUGGGAUGGGAGUGGGUAAAGAGUU: 0.255
AAGUCCUGUGCUACACAUCGUAUGUACCGAAUCGGAAAGGAAAAAGGAAAAAAAGGAAAGUAUUAUGUUACGCCGUUCGGAUCUGCACUU: -0.401
UAACUUUAGAGGAGGAUCUGAUGGAUAUGGCAGUGAACGUGGAUUUGGGGAUGGCUAUAAUGGGUAUGGAGGAGGACCUGGAGGUGGCAA: -0.0346
AGUCCUGUGCUACACAUCGUAUGUACCGAAUCGGGAAAAAAAGGGAGGGUUUUUGGGAAAGUAUUAUGUUACGCCGUUCGGAUCUGCACU: -1.6
GUGCUACACAUCGUAUGUACCGAAUCGGGGUUUUUUUGGGGAAAAAAAGGGGUUUUUUUGGGGAAAGUAUUAUGUUACGCCGUUCGGAUC: -1.71
GUGGACAACGCGUACUGGCUGUGGACUUUCCAGGGACGCCUCCUGCAGAAGAACAACAAGGACCGCUUCUGCCAGCUGCUGUGGCGGCCC: -0.864
AGUCCUGUGCUACACAUCGUAUGUACCGAAUCGGGUUUUUGGGAAAAAGGGUUUGGGAAAGUAUUAUGUUACGCCGUUCGGAUCUGCACU: -2.57
AAGUCCUGUGCUACACAUCGUAUGUACCGAAUCGGUGGAAAAAAAGGUUUUUUUGGAAAGUAUUAUGUUACGCCGUUCGGAUCUGCACUU: -2.17
ACCAUGCAGGUGGGCAUCUUUGGGAAGUGGGGCAAGGGGGGGAUAGGGAGGGGGGUAACACUUUGGGAACAGGUGGGCCCAGGUCGUUUC: -0.277

Set 5 — method: universal PBM; molecule type: double-stranded DNA, one strand shown; matrix: in vitro; concentration: not given; direction: higher = stronger binding; quantity: E-score
Target: Sal-like protein 4, full length isoform B (SALL4, Homo sapiens, UniProt Q9UJQ4-2, residues 1-616)
Notes: 8-mer, flanks averaged, mean of replicates
Construct (chain): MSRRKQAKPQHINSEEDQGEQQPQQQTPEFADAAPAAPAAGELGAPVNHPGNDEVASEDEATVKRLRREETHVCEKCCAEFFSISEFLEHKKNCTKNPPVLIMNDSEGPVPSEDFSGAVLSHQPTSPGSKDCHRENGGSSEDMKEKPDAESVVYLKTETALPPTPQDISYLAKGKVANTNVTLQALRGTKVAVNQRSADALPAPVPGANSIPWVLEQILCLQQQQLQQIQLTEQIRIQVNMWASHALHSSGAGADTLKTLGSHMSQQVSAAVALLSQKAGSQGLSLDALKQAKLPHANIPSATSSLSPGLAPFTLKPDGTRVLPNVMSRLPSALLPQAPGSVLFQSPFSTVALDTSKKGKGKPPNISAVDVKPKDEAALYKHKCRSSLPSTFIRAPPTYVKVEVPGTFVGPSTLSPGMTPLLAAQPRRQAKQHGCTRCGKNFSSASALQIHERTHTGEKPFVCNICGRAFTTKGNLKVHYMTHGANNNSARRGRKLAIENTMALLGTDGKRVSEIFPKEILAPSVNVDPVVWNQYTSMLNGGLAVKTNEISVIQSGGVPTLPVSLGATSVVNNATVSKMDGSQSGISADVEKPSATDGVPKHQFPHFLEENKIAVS
CAATTGAA: 0.0707
CCGAACCA: -0.0982
CATAGTGG: 0.0176
AAACGTGA: 0.12
ACCTGTCG: -0.0487
CCAGAGGC: -0.177
CTATTGAC: 0.0662
GCGCCGTA: -0.184
CCGGATAG: -0.0985
CACTCCGC: -0.277
ACCTTTTG: -0.119
ACAATAGT: 0.17
CACACAAG: -0.00584
TTAGGGAA: 0.149
CGATGCTC: -0.306
CCGCCGCG: -0.345
CCATACGG: -0.149
CGGTGAAA: 0.014
CCCGGAAC: -0.337
ATACTATC: 0.227
CTGACTCC: -0.196

For quick reference, copied from above (set 4):
UAACUUUAGAGGAGGAUCUGAUGGAUAUGGCAGUGAACGUGGAUUUGGGGAUGGCUAUAAUGGGUAUGGAGGAGGACCUGGAGGUGGCAA: -0.0346
ACCAUGCAGGUGGGCAUCUUUGGGAAGUGGGGCAAGGGGGGGAUAGGGAGGGGGGUAACACUUUGGGAACAGGUGGGCCCAGGUCGUUUC: -0.277
GUGCUACACAUCGUAUGUACCGAAUCGGGGUUUUUUUGGGGAAAAAAAGGGGUUUUUUUGGGGAAAGUAUUAUGUUACGCCGUUCGGAUC: -1.71
GUGGACAACGCGUACUGGCUGUGGACUUUCCAGGGACGCCUCCUGCAGAAGAACAACAAGGACCGCUUCUGCCAGCUGCUGUGGCGGCCC: -0.864
GCAGGAAGUAAAAACAAAUGGAAAUGCUUCGGAUAGUGGCAGGGGUGGGGAUUGCUAAGGAAAGGGUGGGAUGGGAGUGGGUAAAGAGUU: 0.255
